Published values pooled from the literature.
Each line is one published result; not all experiments were run side by side. Values joined by “and” are separate records of one study, mostly repeats; a detail may differ. ± gives the spread as reported.
ABCG2: Broad substrate specificity ATP-binding cassette transporter ABCG2 (ABCG2, Homo sapiens, UniProt Q9UNQ0)
Chain of UniProt Q9UNQ0 (whole entry, looked up): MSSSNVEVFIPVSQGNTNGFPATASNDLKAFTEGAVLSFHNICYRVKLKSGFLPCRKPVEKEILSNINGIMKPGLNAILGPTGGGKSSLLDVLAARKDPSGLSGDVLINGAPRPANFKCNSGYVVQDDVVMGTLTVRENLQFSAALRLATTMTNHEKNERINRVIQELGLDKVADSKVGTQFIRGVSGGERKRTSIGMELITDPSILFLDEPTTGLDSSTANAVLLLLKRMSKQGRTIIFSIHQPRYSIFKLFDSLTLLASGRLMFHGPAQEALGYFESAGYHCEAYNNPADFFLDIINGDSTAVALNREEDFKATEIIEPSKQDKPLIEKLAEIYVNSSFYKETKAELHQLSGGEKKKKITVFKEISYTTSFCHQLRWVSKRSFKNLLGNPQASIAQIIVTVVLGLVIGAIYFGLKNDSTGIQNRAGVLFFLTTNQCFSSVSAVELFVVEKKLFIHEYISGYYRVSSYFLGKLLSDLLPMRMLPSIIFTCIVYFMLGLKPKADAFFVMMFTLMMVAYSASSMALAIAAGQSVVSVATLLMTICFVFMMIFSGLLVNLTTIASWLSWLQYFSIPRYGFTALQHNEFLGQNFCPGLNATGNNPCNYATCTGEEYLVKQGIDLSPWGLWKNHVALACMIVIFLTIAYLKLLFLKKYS
KCNH2: Voltage-gated inwardly rectifying potassium channel KCNH2 (KCNH2, Homo sapiens, UniProt Q12809)
CYP3A4: Cytochrome P450 3A4 (CYP3A4, Homo sapiens, UniProt P08684)
Chain of UniProt P08684 (whole entry, looked up): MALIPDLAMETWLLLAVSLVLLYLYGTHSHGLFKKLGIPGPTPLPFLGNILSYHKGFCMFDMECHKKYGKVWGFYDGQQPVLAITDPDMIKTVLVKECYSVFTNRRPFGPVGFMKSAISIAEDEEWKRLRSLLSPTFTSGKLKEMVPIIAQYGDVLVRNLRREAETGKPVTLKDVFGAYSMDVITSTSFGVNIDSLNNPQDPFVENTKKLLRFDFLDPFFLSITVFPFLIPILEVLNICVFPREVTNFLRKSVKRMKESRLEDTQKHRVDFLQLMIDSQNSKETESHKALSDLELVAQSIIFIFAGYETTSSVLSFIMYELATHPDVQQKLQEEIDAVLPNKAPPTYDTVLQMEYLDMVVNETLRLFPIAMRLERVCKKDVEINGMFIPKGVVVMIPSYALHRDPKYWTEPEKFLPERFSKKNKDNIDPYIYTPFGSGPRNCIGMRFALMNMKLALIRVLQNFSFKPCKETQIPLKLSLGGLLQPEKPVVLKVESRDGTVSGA
CYP2A6: Cytochrome P450 2A6 (CYP2A6, Homo sapiens, UniProt P11509)
Chain of UniProt P11509 (whole entry, looked up): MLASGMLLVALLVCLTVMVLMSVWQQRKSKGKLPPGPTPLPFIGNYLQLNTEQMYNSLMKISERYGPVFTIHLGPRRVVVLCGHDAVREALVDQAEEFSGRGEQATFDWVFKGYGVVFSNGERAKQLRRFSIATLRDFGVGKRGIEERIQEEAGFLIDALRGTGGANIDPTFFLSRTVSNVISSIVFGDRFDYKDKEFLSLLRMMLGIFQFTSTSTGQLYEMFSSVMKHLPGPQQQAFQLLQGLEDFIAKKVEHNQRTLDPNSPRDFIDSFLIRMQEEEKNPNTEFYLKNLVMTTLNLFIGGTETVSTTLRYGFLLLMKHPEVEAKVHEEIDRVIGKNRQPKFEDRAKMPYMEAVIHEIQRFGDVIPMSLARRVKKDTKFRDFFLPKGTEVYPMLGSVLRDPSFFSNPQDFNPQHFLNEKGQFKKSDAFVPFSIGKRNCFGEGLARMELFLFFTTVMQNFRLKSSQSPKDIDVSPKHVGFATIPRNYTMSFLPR
Chain of UniProt Q70CQ1 (whole entry, looked up): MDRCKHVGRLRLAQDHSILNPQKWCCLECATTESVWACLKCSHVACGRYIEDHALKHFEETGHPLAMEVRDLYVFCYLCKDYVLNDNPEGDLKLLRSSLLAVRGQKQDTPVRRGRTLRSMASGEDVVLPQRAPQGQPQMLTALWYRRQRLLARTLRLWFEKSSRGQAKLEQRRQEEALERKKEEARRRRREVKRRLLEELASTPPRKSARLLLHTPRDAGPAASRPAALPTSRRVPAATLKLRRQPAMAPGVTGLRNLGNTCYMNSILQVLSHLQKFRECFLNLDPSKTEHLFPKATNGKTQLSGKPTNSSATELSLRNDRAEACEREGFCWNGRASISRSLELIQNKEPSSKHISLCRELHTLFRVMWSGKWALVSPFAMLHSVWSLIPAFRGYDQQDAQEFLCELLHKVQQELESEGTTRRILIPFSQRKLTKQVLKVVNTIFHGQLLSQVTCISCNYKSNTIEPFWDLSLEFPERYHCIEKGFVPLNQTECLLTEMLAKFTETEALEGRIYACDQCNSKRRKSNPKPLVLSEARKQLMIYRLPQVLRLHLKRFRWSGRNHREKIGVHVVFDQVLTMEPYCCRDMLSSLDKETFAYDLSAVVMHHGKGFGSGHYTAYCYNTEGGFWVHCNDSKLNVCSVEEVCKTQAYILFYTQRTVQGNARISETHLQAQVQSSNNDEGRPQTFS
Chain of UniProt Q9Y2K6 (whole entry, looked up): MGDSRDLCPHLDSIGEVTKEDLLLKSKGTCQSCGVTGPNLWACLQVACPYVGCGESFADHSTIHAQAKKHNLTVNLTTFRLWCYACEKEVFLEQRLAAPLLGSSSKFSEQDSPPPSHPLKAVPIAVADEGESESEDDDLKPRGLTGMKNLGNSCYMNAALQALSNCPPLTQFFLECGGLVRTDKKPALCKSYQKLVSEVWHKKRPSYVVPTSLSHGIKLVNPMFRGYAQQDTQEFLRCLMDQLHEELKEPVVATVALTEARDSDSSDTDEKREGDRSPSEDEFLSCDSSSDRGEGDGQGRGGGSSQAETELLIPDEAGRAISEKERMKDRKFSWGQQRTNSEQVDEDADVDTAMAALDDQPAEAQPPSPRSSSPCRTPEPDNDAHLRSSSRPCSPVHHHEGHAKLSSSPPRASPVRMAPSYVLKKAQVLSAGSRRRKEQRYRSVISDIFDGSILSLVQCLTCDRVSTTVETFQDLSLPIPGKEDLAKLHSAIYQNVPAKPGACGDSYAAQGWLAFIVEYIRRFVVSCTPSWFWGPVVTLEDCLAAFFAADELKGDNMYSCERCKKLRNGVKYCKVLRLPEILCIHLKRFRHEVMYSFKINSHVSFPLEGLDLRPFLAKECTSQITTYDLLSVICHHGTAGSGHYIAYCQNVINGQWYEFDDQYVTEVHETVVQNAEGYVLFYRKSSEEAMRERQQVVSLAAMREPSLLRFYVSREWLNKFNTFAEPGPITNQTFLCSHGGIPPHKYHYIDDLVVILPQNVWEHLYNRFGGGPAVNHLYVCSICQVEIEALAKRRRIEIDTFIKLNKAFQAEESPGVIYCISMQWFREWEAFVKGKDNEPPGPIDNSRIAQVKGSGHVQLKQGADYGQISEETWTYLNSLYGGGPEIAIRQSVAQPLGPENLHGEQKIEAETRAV

| SMILES | tested on | test | system | conditions | scale | quantity | result |
| --- | --- | --- | --- | --- | --- | --- | --- |
| C/C(O)=C(\C#N)C(=O)Nc1ccc(C(F)(F)F)cc1 | ABCG2 |  | Caco-2 | 1 µM, 2 h, pH 7.4, together with: 2 µM Ko143 |  | efflux ratio | 0.681 |
| Cc1cc(C(=O)NC(C)(C)COc2cccc3c2C(N)=NS(=O)(=O)N3)cc(C)n1 | human peripheral blood lymphocytes | CBPI, concurrent micronucleus test |  | 250 µg/mL, 24 h | relative to: vehicle control | cytotoxicity | 2% |
| C[C@]12CCCN1CC1=NNC(=O)c3cc(F)cc4[nH]c2c1c34 | ABCG2 | substrate | membrane vesicles | 30 µM, together with: ATP |  | uptake rate | 8.25 ± 4 pmol/min/mg |
| CC(C)(C)NCc1ccc(Nc2ccnc3cc(Cl)ccc23)cc1O | KCNH2 | blocker, thallium flux |  | 10 µM, 30 min | relative to: control | response | < 50% |
| Cc1ccnc([18F])c1-c1cccc(N2C[C@H](N3CCN(C(=O)c4nccs4)CC3)CC2=O)c1 | monoacylglycerol lipase | PET, arterial input | rhesus monkey, brain striatum | intravenous, baseline |  | VT | 8.15 mL/cm3 |
| CC[C@]1(O)C[C@H]2CN(CCc3c([nH]c4ccccc34)[C@@](C(=O)OC)(c3cc4c(cc3OC)N(C=O)[C@H]3[C@@](O)(C(=O)OC)[C@H](OC(C)=O)[C@]5(CC)C=CCN6CC[C@]43[C@@H]65)C2)C1 | CHP-212 resistant subline R2 (heterozygous USP7 V517F) | cell viability |  | 41.15 nM |  | viability | 28.4% and 38.6% and 25.6% |
| Cc1cc(Nc2ncnc3ccc(NC4=NC(C)(C)CO4)cc23)ccc1Oc1ccn2ncnc2c1 | ABCG2 | bidirectional transwell permeability | MDCKII cells transfected with ABCG2 | 1 µM, 1 h, pH 7.4 |  | Papp A-B | 2.91 ± 0.81 ×10⁻⁶ cm/s |
| CC(C)C[C@H](NC(=O)C[C@H](O)[C@H](CC(C)C)NC(=O)[C@H](Cc1c[nH]cn1)NC(=O)CNC(=O)[C@@H](NC(=O)[C@H](C)NC(=O)[C@H](Cc1c[nH]c2ccccc12)NC(=O)[C@H](CCC(N)=O)NC(=O)[C@@H](Cc1ccccc1)NC(=O)COCCOCCNC(=O)CCC(C(=O)O)N1CCN(CC(=O)O)CCN(CC(=O)O)CCN(CC(=O)O)CC1)C(C)C)C(N)=O (stereo partly shown) [lutetium-177 labelled] |  |  | female BALB/c nu/nu mice, blood | intravenous, 50 pmol, 1 h |  | tissue uptake | 0.4 ± 0.1 %ID/g |
| Cc1cc(/C=C/C#N)cc(C)c1Nc1ccnc(Nc2ccc(C#N)cc2)n1 | KCNH2 | hERG current, manual patch clamp | CHO stably expressing hERG | 0.1 µM |  | inhibition | 3.6% |
| COc1ccc(F)cc1C(=O)NCc1ccc(-c2nn([C@@H](C)C(F)(F)F)c(N)c2C(N)=O)cc1 | CYP3A4 |  | human, both sexes, plasma | oral, 200 mg, single dose, together with: itraconazole |  | AUC(0-inf) | 123 µg·h/mL |
| [H]/N=C(/N)c1ccc(NCc2nc3cc(C(=O)N(CCC(=O)O)c4ccccn4)ccc3n2C)cc1 | P-glycoprotein | substrate | healthy human, plasma | oral, adjusted geometric mean, together with: vepdegestrant | relative to: with vepdegestrant over alone | AUCinf ratio | 198% |
| CC[C@H](CO)N(CCN(N=O)[C@H](CC)CO)N=O | Salmonella typhimurium | mutagenicity, Ames plate incorporation | TA98 | 500 µg/plate, without S9, methanol |  | revertant colonies per plate | 26 ± 10 |
| O=C(O)CCc1ccc2c(c1)OCO2 | Ubiquitin carboxyl-terminal hydrolase 49, ZnF-UBD domain (USP49, Homo sapiens, UniProt Q70CQ1) |  |  |  |  | Kd | > 1 mM |
| Cc1cc(Nc2ccc(S(F)(F)(F)(F)F)cc2)n2nc(C(C)(F)F)nc2n1 | Plasmodium vivax | 12-lead Holter ECG | human malaria patients | oral, 400 mg, QTc above 450 ms |  | patients with QTcB above threshold | 20% |
| CC[C@H]1[C@@H](O)[C@@H]2[C@H](CC[C@]3(C)[C@@H]([C@H](C)CCNC(=O)NS(=O)(=O)c4ccc(C(C)(C)C)cc4)CC[C@@H]23)[C@@]2(C)CC[C@@H](O)C[C@@H]12 | CYP3A4 |  | human, plasma | 10 mg, day 1, compound alone |  | Vd/F mean | 521 L |
| O=C(O)CCc1cnn(-c2ccccc2)c1 | Ubiquitin carboxyl-terminal hydrolase 20, ZnF-UBD domain (USP20, Homo sapiens, UniProt Q9Y2K6) |  |  |  |  | Kd | > 1 mM |
| COc1cc(O)c(CC=C(C)C)c(O)c1C(=O)/C=C/c1ccc(O)cc1 | CYP3A4 (human) | enzyme activity, inhibitor | human liver microsomes | 10 µM, pH 7.4, together with: midazolam |  | inhibition | < 10% |
| C=CCN=C=S | CYP2A6 | enzyme activity | human liver microsomes | concentration not given, 10 min, together with: coumarin |  | inhibition | > 75% |
| COc1ccc2c3c([nH]c2c1)[C@H](CC(C)C)N1C(=O)[C@H](CC(=O)NC(C)C)NC(=O)[C@@H]1C3 | ABCG2 | inhibitor, measured: protoporphyrin IX | A549 | 10 µM, 2 h, together with: 1 mM ALA |  | inhibition | 98.1% and 117% and 126% and 104% |
| C=CC(=O)N1C[C@H](Nc2ncnc3[nH]ccc23)CC[C@@H]1C | CYP3A | substrate | human | oral, single dose, together with: itraconazole multiple doses |  | terminal half-life | 1.2 ± 0.1 h |
| CC(C)c1nc(N(C)S(C)(=O)=O)nc(-c2ccc(F)cc2)c1/C=C/[C@@H](O)C[C@@H](O)CC(=O)O | ABCG2 | substrate | Caco-2 | 5 µM, 2 h, together with: Ko143 5 µM |  | Papp (B to A) | 7.6 ± 0.24 ×10⁻⁶ cm/s |
| N#C[C@H](C[C@@H]1CCCNC1=O)NC(=O)[C@H](CC1CC1)NC(=O)c1cc2cccc(Cl)c2[nH]1 | CYP2A6 | NADPH metabolic stability |  | 2 µM, pH 7.4, 100 pmol/mL enzyme |  | intrinsic clearance | < 0.054 µL/min/pmol |

Some of these lines once more:
| SMILES | tested on | test | system | conditions | scale | quantity | result |
| --- | --- | --- | --- | --- | --- | --- | --- |
| Cc1cc(C(=O)NC(C)(C)COc2cccc3c2C(N)=NS(=O)(=O)N3)cc(C)n1 | human peripheral blood lymphocytes | CBPI, concurrent micronucleus test |  | 250 µg/mL, 24 h | relative to: vehicle control | cytotoxicity | 2% |
